{"data": "Experimental data pooled from the literature", "rep nsp13 helicase": "Replicase polyprotein 1ab, nsp13 helicase (rep, Severe acute respiratory syndrome coronavirus 2, UniProt P0DTD1)", "rep main protease": "Replicase polyprotein 1ab, main protease (rep, Severe acute respiratory syndrome coronavirus 2, UniProt P0DTD1)", "Spike glycoprotein": "Spike glycoprotein (Severe acute respiratory syndrome coronavirus 2, UniProt P0DTC2)", "rep nsp12 RdRp": "Replicase polyprotein 1ab, nsp12 RdRp (rep, Severe acute respiratory syndrome coronavirus 2, UniProt P0DTD1)", "rep papain-like protease": "Replicase polyprotein 1ab, papain-like protease (rep, Severe acute respiratory syndrome coronavirus 2, UniProt P0DTD1)", "note": "Lines come from different studies, so protocols differ. Numbers after ± are the reported error."}
{"Compound": "Nc1nc(Nc2ccccc2)nc(NCc2ccco2)c1[N+](=O)[O-]", "target or system": "rep nsp13 helicase", "test": "helicase ATPase activity, inhibitor, Kinase-Glo luminescence", "quantity": "IC50", "value": "> 90 µM"}
{"Compound": "CC(C)(C)c1ccc(N(C(=O)CCl)C(C(=O)NC2CCCCC2)c2cccnc2)cc1 (stereo not drawn)", "target or system": "rep main protease", "test": "inhibitor, ITC, two-step reversible model", "quantity": "Ki", "value": "16 ± 2 µM"}
{"Compound": "O=C(O[C@@H]1Cc2c(O)cc(O)cc2O[C@@H]1c1ccc(O)c(O)c1)c1cc(O)c(O)c(O)c1", "target or system": "rep main protease", "test": "inactivator", "conditions": "37 °C", "quantity": "Ki", "value": "1.81 µM"}
{"Compound": "CC[C@H](C)[C@H](NC(=O)[C@H](CC(C)C)NC(=O)[C@H](Cc1c[nH]c2ccccc12)NC(=O)[C@H](CCC(N)=O)NC(=O)[C@@H](NC(=O)[C@H](Cc1ccccc1)NC(=O)[C@H](C)NC(=O)[C@H](CCCCNC(=O)COCCOCCNC(=O)COCCOCCNC(=O)CC[C@H](NC(=O)CCCCCCCCCCCCCCCCCCC(=O)O)C(=O)O)NC(=O)[C@H](CCC(N)=O)NC(=O)[C@H](C)NC(=O)[C@@H](NC(=O)[C@H](CCCCN)NC(=O)[C@H](CC(=O)O)NC(=O)[C@H](CC(C)C)NC(=O)C(C)(C)NC(=O)[C@@H](NC(=O)[C@H](CO)NC(=O)[C@H](Cc1ccc(O)cc1)NC(=O)[C@H](CC(=O)O)NC(=O)[C@H](CO)NC(=O)[C@@H](NC(=O)[C@H](Cc1ccccc1)NC(=O)[C@@H](NC(=O)CNC(=O)[C@H](CCC(=O)O)NC(=O)C(C)(C)NC(=O)[C@@H](N)Cc1ccc(O)cc1)[C@@H](C)O)[C@@H](C)O)[C@@H](C)CC)[C@@H](C)CC)C(C)C)C(=O)N[C@@H](C)C(=O)NCC(=O)NCC(=O)N1CCC[C@H]1C(=O)N[C@@H](CO)C(=O)N[C@@H](CO)C(=O)NCC(=O)N[C@@H](C)C(=O)N1CCC[C@H]1C(=O)N1CCC[C@H]1C(=O)N1CCC[C@H]1C(=O)N[C@@H](CO)C(N)=O", "system": "healthy human", "conditions": "0.25 mg, single ascending dose", "quantity": "severe hypoglycaemia", "value": "0%"}
{"Compound": "O=C(O)c1cccc(-n2cccc2/C=N/O)c1", "target or system": "rep nsp13 helicase", "test": "helicase ATPase activity, inhibitor, Kinase-Glo luminescence", "quantity": "IC50", "value": "> 150 µM"}
{"Compound": "C[C@@H]1[C@H]2[C@H](O[C@@H]3O[C@H](CO)[C@@H](O)[C@H](O)[C@H]3O)OC=C(C(=O)O)[C@H]2C[C@@H]1O", "target or system": "Spike glycoprotein", "test": "binding, biolayer interferometry", "quantity": "Kd", "value": "36.9 µM"}
{"Compound": "Nc1ncnc2c1c(I)cn2[C@@H]1O[C@H](CO)[C@@H](O)[C@H]1O", "target or system": "rep nsp12 RdRp", "test": "RdRp activity, inhibitor", "system": "HEK293T", "conditions": "24 h, with: nsp7 and nsp8", "quantity": "EC50", "value": "0.75 µM"}
{"Compound": "CSc1ccc(N(Cc2cc(Cl)cs2)C(=O)Cc2cncc3ccccc23)cc1", "target or system": "rep main protease", "test": "enzyme activity, inhibitor", "quantity": "Ki", "value": "1.9 µM"}
{"Compound": "COc1ccc(O)c(C=NN2C(=O)c3ccccc3NC2c2cc(OC)ccc2O)c1 (stereo not drawn)", "target or system": "rep main protease", "test": "viral replication, GFP reporter", "system": "HEK293T, SARS-CoV-2", "conditions": "48 h", "quantity": "EC50", "value": "6.5 µM"}
{"Compound": "O=C(Oc1cncc(Cl)c1)c1cc2cc(Cl)ccc2[nH]1", "target or system": "rep main protease", "test": "enzyme activity, inhibitor", "quantity": "Ki", "value": "0.01 µM"}
{"Compound": "COC(=O)c1ccccc1NC(=O)c1noc2c1CCC2", "target or system": "rep nsp13 helicase", "test": "helicase ATPase activity, inhibitor, Kinase-Glo luminescence", "quantity": "IC50", "value": "> 150 µM"}
{"Compound": "CCC(C(=O)Nc1cc(NC2CNC2)ccc1C)n1cc(Br)cc2nc(SCc3ccc(F)cc3)nc1-2 (stereo not drawn)", "target or system": "rep papain-like protease", "test": "binding", "quantity": "Kd", "value": "0.141 ± 0.029 µM"}
{"Compound": "N#C[C@@]1(n2ccc(N)nc2=O)O[C@H](COP(=O)(O)OP(=O)(O)OP(=O)(O)O)[C@@H](O)[C@H]1O", "target or system": "Replicase polyprotein 1ab, nsp12 with nsp7/nsp8 (rep, Severe acute respiratory syndrome coronavirus 2, UniProt P0DTD1)", "test": "nucleotide binding, substrate", "conditions": "templating base G", "quantity": "Kd", "value": "4.7 µM"}
{"Compound": "CC(C)=CCC[C@](C)(O[C@@H]1O[C@H](CO)[C@@H](O)[C@H](O)[C@H]1O)[C@H]1CC[C@]2(C)[C@@H]1[C@H](O)C[C@@H]1[C@@]3(C)CC[C@H](O[C@@H]4O[C@H](CO)[C@@H](O)[C@H](O)[C@H]4O)C(C)(C)[C@@H]3CC[C@]12C", "target or system": "Spike glycoprotein", "test": "binding, BLI", "quantity": "Kd", "value": "27.1 µM"}
{"Compound": "CCC(C(=O)Nc1cc(NC2CNC2)ccc1C)n1cc(Cl)cc2nc(SCc3ccc(F)cc3)nc1-2 (stereo not drawn)", "target or system": "rep papain-like protease", "test": "binding", "quantity": "Kd", "value": "0.134 ± 0.012 µM"}
{"Compound": "O=C(O)c1ccccc1-c1c2cc(Br)c(=O)cc-2oc2[c]([Hg+])c(O)c(Br)cc12", "target or system": "rep main protease", "test": "binding, SPR", "conditions": "second site heterogeneous model", "quantity": "Kd", "value": "25.1 ± 0.15 µM"}
{"Compound": "O=C(O)c1cc(O)c(O)c(O)c1", "target or system": "rep main protease", "test": "inactivator", "conditions": "37 °C", "quantity": "Ki", "value": "3.85 µM"}
{"Compound": "Nc1ncnc2c([C@@H]3N[C@H](CO)[C@@H](O)[C@H]3O)c[nH]c12", "target or system": "Marburg marburgvirus", "test": "viral glycoprotein surface expression", "system": "HeLa, Musoke", "conditions": "50 µM", "quantity": "inhibition", "value": "97.7%"}
{"Compound": "Cn1cnc(Cn2c(=O)[nH]/c(=N\\c3cc4cn(C)nc4cc3Cl)n(Cc3cc(F)c(F)cc3F)c2=O)n1", "system": "human, all renal function groups", "conditions": "oral, 375 mg", "quantity": "dry mouth TEAE, Moderate severity", "value": "0%"}
{"Compound": "CNC(=O)[C@@H](NC(=O)[C@H](CC(C)C)[C@H](O)C(=O)NO)C(C)(C)C", "target or system": "C2C12", "conditions": "1 µM, with: TN venom", "how to read": "baseline: venom alone", "quantity": "viability difference", "value": "9.39%"}
{"Compound": "Nc1nc(F)nc2c1ncn2[C@@H]1O[C@H](CO)[C@@H](O)[C@@H]1O", "target or system": "rep nsp12 RdRp", "test": "RdRp activity, inhibitor", "system": "HEK293T", "conditions": "24 h, with: nsp7 and nsp8", "quantity": "EC50", "value": "1.06 µM"}
{"note": "Excerpt of the above:"}
{"Compound": "CCC(C(=O)Nc1cc(NC2CNC2)ccc1C)n1cc(Cl)cc2nc(SCc3ccc(F)cc3)nc1-2 (stereo not drawn)", "target or system": "rep papain-like protease", "test": "binding", "quantity": "Kd", "value": "0.134 ± 0.012 µM"}
{"Compound": "O=C(O)c1ccccc1-c1c2cc(Br)c(=O)cc-2oc2[c]([Hg+])c(O)c(Br)cc12", "target or system": "rep main protease", "test": "binding, SPR", "conditions": "second site heterogeneous model", "quantity": "Kd", "value": "25.1 ± 0.15 µM"}
{"Compound": "O=C(O)c1cc(O)c(O)c(O)c1", "target or system": "rep main protease", "test": "inactivator", "conditions": "37 °C", "quantity": "Ki", "value": "3.85 µM"}
